Experimental data gathered from unrelated publications.
Numbered parts are unrelated; each lists some results of a single study.

Sample 1
Target: RNA binding protein fox-1 homolog 2, RRM domain, GST-SBP tag (RBFOX2, Homo sapiens, UniProt O43251-10, residues 100-194)
Technique: RNA Bind-n-Seq
Form: RNA
Sample: in vitro
Tested at: 365 nM
Notes: natural RNA segment, single round, ends assumed
Baseline: no-protein control
Direction: higher = stronger binding
Residues (chain): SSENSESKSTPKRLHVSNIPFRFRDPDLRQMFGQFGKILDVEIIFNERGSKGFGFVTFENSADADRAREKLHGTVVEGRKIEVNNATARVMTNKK
Sequence | RBNS enrichment (R)
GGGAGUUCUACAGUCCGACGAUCCUUGAAAAAAAAAACAUUAUUGUGGUUGUGGGAGAAAGCUCUAGAUCUGUGCCAUAAUAGAUAUGCAUUGCAAUUGUAUGCCAUGUCUCCAUUUUAAAUUUGAGUUUCCCUGGAAUUCUCGGGUGCCAA | 1.1
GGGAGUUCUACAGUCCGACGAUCCGAACCCCACUUGGCAUGUGCCGAGCACACAGUUCCUGUGGUAGACUUUUCAGAGAACCCUUCUGUGCCAGGACUCGUGGAAGCCUGGAGCGGAGCAGAUGCCUGUCCAAUGGAAUUCUCGGGUGCCAA | 0.347
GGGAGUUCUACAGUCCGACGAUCGAUAACAAGGUUCUAAUAGUGUUUAAAUGUACUGGUAACCUGGUUCCAAUAGUUGUGUUUGCCCAAGCCUUUCUCGGCAUCAUCUUGUAUUCCUUAUCAGAUAGUAAGUAUGGAAUUCUCGGGUGCCAA | 0.232
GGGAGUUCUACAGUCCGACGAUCGACAGUCUCUGAAUAGUGGUUUUUCUAAUAAGAUGAGAUUUUUUUCUCUUGGGAAGUCACCUGUGAGAUGUCUUCUCCCUCAUCAUCCUGAGCCUUAUCUAAUCCAGGUAUGGAAUUCUCGGGUGCCAA | 0.235
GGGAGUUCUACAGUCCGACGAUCUCCUUUAAUUUUUUUUUAACAGAAGGGUAUCAGAGUGGAGGACCUAGAUUACGCUACCUGUGUUUGAAAAUAUUGCGCUUUGCCUAACCUUCGGUGGAAUGUAUUGUUUCUGGAAUUCUCGGGUGCCAA | 0.853
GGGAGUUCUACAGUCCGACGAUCCAACUUGAACACGGUUUGCACAAUGGUAUAACGAGGCAACCUUUGCCUUCUUCAGAAGCUUGGAAAUCGACACACAAAACAGUGCACAUUUAGUUCACUGCUAAACAAAUUGGAAUUCUCGGGUGCCAA | 0.303
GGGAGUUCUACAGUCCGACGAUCUCAGCUCCCAAAGGCCCACUGCAGUGGUGGUUCAGUGAGCACUCUGAUGAGUGCUGAUGGGCUAACCCUACCCUGUACAAGGGCUCAUAAGGCUACUAAGCAUUAGGGCCUGGAAUUCUCGGGUGCCAA | 0.213
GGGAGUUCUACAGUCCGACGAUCUGCUGCUAUCAGGACCCAUUCUGGAGCCCCAUUUCUAACCUAUGAGGCCCUGCCAGCUGUCACUCAGGCUGGAGGAGAAGCAAGUGUUUAUCACUGCUGGAAUUUGGAUGUGGAAUUCUCGGGUGCCAA | 0.451

Sample 2
Target: Interferon regulatory factor 7, full length, phosphomimetic (IRF7, Homo sapiens, UniProt Q92985, residues 1-503, S101K/S471D/S472D/S475D/S476D/S477D/S483D/S484D/S487D)
Technique: protein-binding microarray
Form: double-stranded DNA, one strand shown
Sample: in vitro
Tested at: 250 nM
Notes: 60-bp whole probe
Together with: salmon DNA 0.4 mg/ml
Baseline: random background probes
Direction: higher = stronger binding
All sequences stand within: GCCTAGCAC … GTCTTGATTCGCTTGACGCTGCTG
Construct (chain): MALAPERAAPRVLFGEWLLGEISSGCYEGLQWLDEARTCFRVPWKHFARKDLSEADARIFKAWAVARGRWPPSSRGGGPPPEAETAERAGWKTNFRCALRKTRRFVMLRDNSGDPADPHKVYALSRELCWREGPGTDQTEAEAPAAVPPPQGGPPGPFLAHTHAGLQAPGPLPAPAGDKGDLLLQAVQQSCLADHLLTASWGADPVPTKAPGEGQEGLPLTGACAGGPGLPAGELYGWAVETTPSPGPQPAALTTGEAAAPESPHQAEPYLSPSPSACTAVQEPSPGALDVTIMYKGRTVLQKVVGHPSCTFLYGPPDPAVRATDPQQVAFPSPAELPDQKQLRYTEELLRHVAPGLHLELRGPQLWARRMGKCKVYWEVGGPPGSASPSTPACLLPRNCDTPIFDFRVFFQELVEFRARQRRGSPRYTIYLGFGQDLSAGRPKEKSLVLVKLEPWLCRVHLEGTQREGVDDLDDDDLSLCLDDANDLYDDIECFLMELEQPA
Sequence | log fluorescence [z-score]
GACGGTTTCGGACTGGGGCCGTGCTAG | 3.32
GACGGTTCCCTATTCCTGACGTGCTAG | 2.18
TCAGGTTTCGGGACTGGGTTAGTGCTA | 4.33
TTAGATTTCAGTTTAGATTAGTGCTAG | 1.49
GAAGATCTCAGTCTCGAGACGTGCTAG | 0.3
TAGCGTATATTCCCTAGAATAGTGCTA | -0.167
GACGAAATCAGTTTCGAGACGTGCTAG | 4.66
CACGGACTGCTTTTCCTGACGTGCTAG | -0.0646
TTTTTTTTATCAATCATTTTGTGCTAG | 0.786
TTAGATATCGGGTATCGCTTAGTGCTA | 0.22
GACAGTTTCGGACTGGGGACGTGCTAG | 3.54
CTTTAACTCATTCTCTGCTTGTGCTAG | 0.699
TCAATTTCTGTTTTTGCACTGTGCTAG | 1.54
GACGCTATCAGTTTCGAGACGTGCTAG | 3.24
TTAGGACTGCTTTGCCTTTAGTGCTAG | 1.25
TCATTTCTGAATGTCTTACTGTGCTAG | 1.18

Sample 3
Target: Sal-like protein 4, full length isoform A (SALL4, Homo sapiens, UniProt Q9UJQ4, residues 1-1053)
Sequence of UniProt Q9UJQ4 (whole entry, looked up): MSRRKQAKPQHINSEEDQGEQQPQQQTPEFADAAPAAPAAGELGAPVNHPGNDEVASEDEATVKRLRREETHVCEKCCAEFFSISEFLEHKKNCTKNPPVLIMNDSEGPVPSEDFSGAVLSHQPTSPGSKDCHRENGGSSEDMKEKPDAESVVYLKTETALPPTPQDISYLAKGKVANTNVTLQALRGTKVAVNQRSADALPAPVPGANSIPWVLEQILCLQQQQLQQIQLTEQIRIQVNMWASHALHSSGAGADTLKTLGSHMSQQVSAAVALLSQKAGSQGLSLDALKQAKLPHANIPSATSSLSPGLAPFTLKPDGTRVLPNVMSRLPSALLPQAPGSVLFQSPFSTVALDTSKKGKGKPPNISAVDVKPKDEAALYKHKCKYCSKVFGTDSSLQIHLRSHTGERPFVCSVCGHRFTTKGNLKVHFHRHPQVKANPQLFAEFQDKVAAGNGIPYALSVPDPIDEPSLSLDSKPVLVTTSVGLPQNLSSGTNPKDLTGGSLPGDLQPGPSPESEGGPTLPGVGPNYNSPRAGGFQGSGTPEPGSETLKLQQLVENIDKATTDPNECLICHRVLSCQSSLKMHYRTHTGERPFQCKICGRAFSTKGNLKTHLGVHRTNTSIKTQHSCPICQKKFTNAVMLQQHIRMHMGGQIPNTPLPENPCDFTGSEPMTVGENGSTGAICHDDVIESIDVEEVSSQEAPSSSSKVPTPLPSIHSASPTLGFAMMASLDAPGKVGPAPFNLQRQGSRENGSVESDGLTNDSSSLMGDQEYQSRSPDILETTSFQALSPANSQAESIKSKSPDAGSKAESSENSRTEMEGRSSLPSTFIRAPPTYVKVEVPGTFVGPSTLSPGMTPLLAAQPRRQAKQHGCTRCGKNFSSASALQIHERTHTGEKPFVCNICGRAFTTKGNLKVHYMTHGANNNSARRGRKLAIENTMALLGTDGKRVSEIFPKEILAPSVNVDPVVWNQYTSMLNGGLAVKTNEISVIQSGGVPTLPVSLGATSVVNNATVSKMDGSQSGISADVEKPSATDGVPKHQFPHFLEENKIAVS
Technique: universal PBM
Form: double-stranded DNA, one strand shown
Sample: in vitro
Tested at: 600 nM
Notes: 8-mer, flanks averaged, mean of replicates
Direction: higher = stronger binding
Sequence | E-score
GCTTCTCA | -0.122
AATCATCG | 0.0784
AGAGTAAC | -0.0732
AAAGTAGG | 0.132
ACCAACTC | -0.112
GCAATTGA | -0.0121
AAATGATT | 0.332
CCAGGTTC | -0.295
GAGCGCAC | -0.243
AGTCACAA | 0.0667
GATCTGCC | -0.139
ATCCACCC | -0.115
ATCTACTA | 0.323
TGGACCCA | -0.0751
GCGCCTGA | -0.272
ATACGTAC | 0.0851
GTGAGCCA | -0.0651
ACCTTAGG | -0.19
ACCTAGCT | -0.185
GTAGATTA | 0.286
ACTCGGGC | -0.232
CATGCAAA | 0.148
ACAGCGAC | -0.226
AAAGGGCC | -0.263
TAAAGATA | 0.245

Sample 4
Target: RING finger protein unkempt homolog, zinc fingers 1-6, GST-SBP tag (UNK, Homo sapiens, UniProt Q9C0B0, residues 30-357)
Technique: RNA Bind-n-Seq
Form: RNA
Sample: in vitro
Tested at: not given
Notes: RNA with constant flanks, human and mouse sites, ends assumed
Baseline: input RNA pool
Direction: higher = stronger binding
Residues (chain): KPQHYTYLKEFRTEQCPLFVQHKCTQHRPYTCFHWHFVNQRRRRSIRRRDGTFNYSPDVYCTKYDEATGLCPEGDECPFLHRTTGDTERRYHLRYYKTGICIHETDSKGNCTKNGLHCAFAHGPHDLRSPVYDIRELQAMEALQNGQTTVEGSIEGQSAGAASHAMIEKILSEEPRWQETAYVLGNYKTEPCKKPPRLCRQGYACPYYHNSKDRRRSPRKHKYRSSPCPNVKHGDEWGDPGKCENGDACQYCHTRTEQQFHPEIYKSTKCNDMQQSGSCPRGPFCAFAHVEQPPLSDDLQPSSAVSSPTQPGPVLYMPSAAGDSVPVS
Sequence | bound/input enrichment
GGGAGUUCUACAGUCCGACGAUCUAGGUCGUUCCCCAGCACCUCCAGGUUGGCCCACACAGGUACCAUAAGCUGCCUCGGCUCCCUGUGGCUUGUGCCCAUGCACCUGCCAGGGCCCAGCAGGCCAACCCAUCAUCUAGAGUACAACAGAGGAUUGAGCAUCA | 89.3 ratio
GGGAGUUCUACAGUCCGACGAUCUCAGGAACCCAGACAAACAUGAAUGUAAAUGAAGUCAUUAGCAACAGAGCAAUUGAAAUGUUAGGAGGUGAACUUGGCAGCAAGAAGCCUGUGCACCCCAAUGAUCAUGUUAACAAAAGCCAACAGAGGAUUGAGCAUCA | 0.252 ratio
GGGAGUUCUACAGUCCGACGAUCGUAGCAUCAACAUCUAUGAACAGAGAGUCUUCUAGAUCCCAUGCAGUCUUUACCAUCACAAUAGAAUCAAUGGAGAAGAGCAGCGAGACCGUGAACAUCCGGACCUCCUUACUCAACCUGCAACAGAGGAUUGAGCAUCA | 0.164 ratio
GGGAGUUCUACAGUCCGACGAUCAACCUGCAGGAACAGUACCUGGAAGCCCACGACCGUCUCCUUGCAGAGACCCACUACCAGCUGGGCUUGGCUUAUGGGUACAACUCUCAGUAUGAUGAGGCAGUGGCACAGUUCAGCAAACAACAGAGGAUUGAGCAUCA | 0.062 ratio
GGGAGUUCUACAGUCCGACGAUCUUGAGCCACAAGAAGUGGAGGGGAGACCAUGCCUGGGAACAGACCCCCUUUUCACAGCAGUAAGUUUGUUUUGAGGCUUUCUCAGCUACUUGGCUCCCACAGAACCCAAGGCAGGUACACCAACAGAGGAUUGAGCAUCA | 0.154 ratio
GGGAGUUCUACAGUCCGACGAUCGCAGGAUUUGACUCAUCAAAAAACAUCUUUCUUGGGGAGAAGGCUGCCAAAUGGAAGACAUCAGAUGGACAGAUGGAUGGCUUGACCACUAAUGGUGUUCUUGUGAUGCAUCCACGCAAUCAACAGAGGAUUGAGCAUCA | 0.122 ratio
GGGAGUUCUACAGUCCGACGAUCGACUUGCUUCUACAGGCUUGUCCUUUGGGUACUUUAUUGGAUGCUAACUUGCAGAAUUCACUGAAUAGCAUUAAUUCCGUAUCUGUGACUCAGCCGCAAAAACAGCCAGCCUGGAAAGUUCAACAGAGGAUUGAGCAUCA | 0.191 ratio
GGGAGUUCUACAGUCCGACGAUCGAAAGACCAGAUCUCAGGGAAAAGGUCAUUAAAGGAGCAGAGAUUCUUGAAGUGUUGCACAGUCUUCCAGCAGUUCGGCAGUAUCUGUUUUCACUCUAUGAAUGCCGUUACUCUGUUUUCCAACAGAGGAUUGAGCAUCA | 0.257 ratio

Some of these lines once more (sample 1):
Sequence | RBNS enrichment (R)
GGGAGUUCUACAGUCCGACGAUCCAACUUGAACACGGUUUGCACAAUGGUAUAACGAGGCAACCUUUGCCUUCUUCAGAAGCUUGGAAAUCGACACACAAAACAGUGCACAUUUAGUUCACUGCUAAACAAAUUGGAAUUCUCGGGUGCCAA | 0.303
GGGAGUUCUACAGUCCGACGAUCUGCUGCUAUCAGGACCCAUUCUGGAGCCCCAUUUCUAACCUAUGAGGCCCUGCCAGCUGUCACUCAGGCUGGAGGAGAAGCAAGUGUUUAUCACUGCUGGAAUUUGGAUGUGGAAUUCUCGGGUGCCAA | 0.451
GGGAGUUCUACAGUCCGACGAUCGAUAACAAGGUUCUAAUAGUGUUUAAAUGUACUGGUAACCUGGUUCCAAUAGUUGUGUUUGCCCAAGCCUUUCUCGGCAUCAUCUUGUAUUCCUUAUCAGAUAGUAAGUAUGGAAUUCUCGGGUGCCAA | 0.232
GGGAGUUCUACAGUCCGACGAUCCUUGAAAAAAAAAACAUUAUUGUGGUUGUGGGAGAAAGCUCUAGAUCUGUGCCAUAAUAGAUAUGCAUUGCAAUUGUAUGCCAUGUCUCCAUUUUAAAUUUGAGUUUCCCUGGAAUUCUCGGGUGCCAA | 1.1
